Measured values gathered from unrelated publications.
A part holds a random share of what one study measured.

Set 1
Target: Histone acetyltransferase KAT6A, winged helix 1, GST fusion (KAT6A, Homo sapiens, UniProt Q92794, residues 1-85)
Technique: protein binding microarray
Form: double-stranded DNA, one strand shown
Matrix: in vitro
Concentration: not given
Notes: 8-mer, flanks averaged, mean of 2 arrays, mostly near background
Relative to: not given
Direction: higher = stronger binding
Construct (chain): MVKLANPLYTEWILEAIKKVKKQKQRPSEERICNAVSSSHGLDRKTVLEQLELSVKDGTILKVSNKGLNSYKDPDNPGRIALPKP
Sequence	E-score
ACTCTTCT	-0.157
GCAAAGAA	-0.107
GCCTTACC	0.0244
CAGCTAAC	-0.194
AGATTAGG	-0.0494
GAGGTTGC	0.089
AGGACACA	-0.203
GTTCGAAA	0.0604
CAGCAGCC	-0.208
CATCATTC	-0.101
TCCGCCCA	-0.0564
CGAGCCCG	0.332
CTCCCCCC	-0.0662
CAAAAAGC	0.0194
CTTCTTAA	-0.141
AAGTCCCA	-0.0889
CAGGGGAG	-0.00502
CCCCGTCG	0.395
GCCTGAGC	0.0814
AACCGGAG	0.137
ACATTACC	0.143
AATACCTA	-0.193
AGGCAACG	-0.0709

Set 2
Target: Sal-like protein 4, full length isoform A (SALL4, Homo sapiens, UniProt Q9UJQ4, residues 1-1053)
Chain of UniProt Q9UJQ4 (whole entry, looked up): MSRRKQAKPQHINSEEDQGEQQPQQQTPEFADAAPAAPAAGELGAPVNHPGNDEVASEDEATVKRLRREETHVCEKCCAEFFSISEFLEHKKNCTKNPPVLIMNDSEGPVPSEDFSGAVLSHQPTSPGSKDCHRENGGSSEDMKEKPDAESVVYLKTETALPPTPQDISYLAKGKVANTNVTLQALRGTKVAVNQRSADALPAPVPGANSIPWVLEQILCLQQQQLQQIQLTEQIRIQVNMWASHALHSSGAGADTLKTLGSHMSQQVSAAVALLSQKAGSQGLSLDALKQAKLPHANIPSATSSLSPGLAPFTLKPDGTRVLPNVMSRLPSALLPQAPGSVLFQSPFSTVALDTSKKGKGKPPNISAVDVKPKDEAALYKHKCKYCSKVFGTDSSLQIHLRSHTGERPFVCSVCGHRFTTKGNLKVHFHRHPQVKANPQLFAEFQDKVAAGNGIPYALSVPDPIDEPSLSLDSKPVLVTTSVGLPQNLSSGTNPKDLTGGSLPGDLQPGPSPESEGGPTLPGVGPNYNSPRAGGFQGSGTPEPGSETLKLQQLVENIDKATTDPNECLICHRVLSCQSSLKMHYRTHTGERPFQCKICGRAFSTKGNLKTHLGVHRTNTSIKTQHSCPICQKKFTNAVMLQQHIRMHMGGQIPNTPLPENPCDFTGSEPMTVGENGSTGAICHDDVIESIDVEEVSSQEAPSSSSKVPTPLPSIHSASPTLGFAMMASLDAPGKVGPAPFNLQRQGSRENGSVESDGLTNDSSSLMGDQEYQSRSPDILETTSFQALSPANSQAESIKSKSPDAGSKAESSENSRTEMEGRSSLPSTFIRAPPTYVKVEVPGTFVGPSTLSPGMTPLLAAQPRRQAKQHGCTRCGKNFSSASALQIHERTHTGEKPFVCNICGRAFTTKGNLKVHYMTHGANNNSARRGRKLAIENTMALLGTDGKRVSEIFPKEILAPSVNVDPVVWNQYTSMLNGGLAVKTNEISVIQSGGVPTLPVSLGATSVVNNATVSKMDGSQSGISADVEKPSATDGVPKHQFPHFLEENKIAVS
Technique: universal PBM
Form: double-stranded DNA, one strand shown
Matrix: in vitro
Concentration: 600 nM
Notes: 8-mer, flanks averaged, mean of replicates
Direction: higher = stronger binding
Sequence	E-score
ACGGGAAT	-0.019
CCCAAGAC	-0.195
GGTAGCCA	-0.197
CGCATGCA	-0.0473
CTCGGTGA	-0.114
AGCTTTGG	-0.0823
ATCCTTGG	0.0037
GAGGCCTC	-0.269
ATAACTCC	0.238
GGCCTACA	-0.122
CAGTTCCG	-0.215
GGAGCTCC	-0.217
AAAAGCCT	0.0514
CAGCAAGA	0.0563
ACAACTAC	0.113
AGGAACCA	-0.199
GTGATAAA	0.231
AAACGATG	0.165
ACGTGGAG	-0.137
CCCTCATC	-0.0973
CTGTAGAC	-0.0351
GAACTGGA	-0.0076
CCGGCGAA	-0.214
ACCAATGA	0.14
ACGCAGGC	-0.181

Set 3
Organism: Saccharomyces cerevisiae
Observed: binding
Technique: competitive growth deep sequencing
Form: peptide
Strain: cyclin D3-Cln2 fusion strain
Concentration: concentration not given
Notes: RxL motif peptides
Direction: direction not given
Molecule	growth enrichment score
SSAQRRLEIPSGG	-0.0381
SFEPRNLLSLFED	-0.101
FVPQRKLEVSTED	0.175
PPARRRLRLSVDE	0.0745

Set 4
Target: RING finger protein unkempt homolog, zinc fingers 1-6, GST-SBP tag (UNK, Homo sapiens, UniProt Q9C0B0, residues 30-357)
Technique: RNA Bind-n-Seq
Form: RNA
Matrix: in vitro
Concentration: not given
Notes: RNA with constant flanks, human and mouse sites, ends assumed
Relative to: input RNA pool
Direction: higher = stronger binding
All sequences stand within: GGGAGUUCUACAGUCCGACGAUC … CAACAGAGGAUUGAGCAUCA
Construct (chain): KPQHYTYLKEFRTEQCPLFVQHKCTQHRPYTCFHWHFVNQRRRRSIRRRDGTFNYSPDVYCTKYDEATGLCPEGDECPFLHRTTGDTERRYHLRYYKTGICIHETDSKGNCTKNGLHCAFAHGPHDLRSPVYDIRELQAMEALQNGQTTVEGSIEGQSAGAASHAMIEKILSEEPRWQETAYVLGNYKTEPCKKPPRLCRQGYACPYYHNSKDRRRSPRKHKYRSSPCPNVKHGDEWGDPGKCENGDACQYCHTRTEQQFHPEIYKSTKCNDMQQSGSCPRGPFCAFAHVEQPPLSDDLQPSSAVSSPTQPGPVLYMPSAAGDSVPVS
Sequence	bound/input enrichment
AAAACAUGUAAAUCCAGUCUACUCUAUUGUCUUGUUUUGAUUAUACCAUCAGACACAUUGUAGUUGCUAGACGUAGUAUGAAGGCACAGGUGAUGGGGCAGUCCUAAAUUUCUGACUCUU	0.585 ratio
UACAAAGAAAUCAUCAUUGAAGCCACUAAACAUCGCAACUCUGAAGAGAUGUGGAGGAGGAUGAACUUGAUGACGCCAGAAGCCCUGGGUAAGCUCAAAGAAGAGAUGAAAAGUUGUGGG	0.189 ratio
GAGGGAGAUGGUGGCCCUAACACAGGGGGAAUGGGAGCCUAUUGUCCAGCCCCUCAGGUUUCUAAUGAUCUAUUACUAAAAAUUAAAGAUACUGUUCUUCAGAGGACAGUGGAUGGCAUG	0.77 ratio
GACGGUCCAUCCAGGGUGUCUUACACCUUACAGCGCCAGACUAUCUUCAACAUUUCCCUUAUGAAACUGUAUAACCACAGGCCUCUGACAGAGCCCAGCUUGCAGAAGACUGUCUUAAUU	0.0966 ratio
GCUGAUCCUGAUGAGAUGAGAAUGCAGGCACUAUUAAUCAGAGAACGUAUUCUUGGUCCUUCUCAUCCUGAUACCUCUUACUAUAUUAGAUAUAGAGGCGCUGUCUAUGCAGACUCUGGA	0.18 ratio
CUUGAUUUGGUCCAUGGGAAACCACGAGACAACAAGCAAGCAGGGGUGUUUGAACCAACCAUAGUUAAAGUGAAGAGCCUGAAGUUCGCAACAGAGGCUGCAAUCACCAUCCUUCGGAUU	0.514 ratio
UGAGAGUUCAGAACAUAUGGCAGCUGUUUGUGAAGCUAUUUUUUACUGACAAAUUUUGAUAAGUUUGGCUACUGUAAUGGAAAGUAGGCUUUCUUAAGCACUGACUACAUUUGGAUUCUU	0.0884 ratio
ACCGGGAAAACCUGUGUGUUCUCCACCAUAGCUUUGGACUCUCUUGUUCUUGAAAACUUAAGUACCCAGAUUUUGAUCUUGGCUCCUACAAGAGAAAUUGCUGUACAGAUACAUUCUGUU	0.114 ratio

Repeated from above (set 2):
Sequence	E-score
GGAGCTCC	-0.217
AAAAGCCT	0.0514
CAGCAAGA	0.0563
ACAACTAC	0.113
AGGAACCA	-0.199
GTGATAAA	0.231
AAACGATG	0.165
ACGTGGAG	-0.137
CCCTCATC	-0.0973
CTGTAGAC	-0.0351
